Assay results gathered from unrelated publications.
Lines come from different studies, so protocols differ. “And” joins repeats or separate records; there may be more than shown. ± marks the error that the study gave.

CC(=O)N[C@H](C(=O)N1C[C@H](O)C[C@H]1C(=O)NCc1ccc(-c2scnc2C)cc1)C(C)(C)SCCCCCCNC(=O)C[C@@H]1N=C(c2ccc(Cl)cc2)c2c(sc(C)c2C)-n2c(C)nnc21 — binding stoichiometry (BRD2/VHL, BD1; with VCB (Homo sapiens, UniProt P25440+P40337); ITC; concentration not given, 25 °C, ternary complex, added: BRD2 BD1): 0.88 ± 0.07
CC1(C)S[C@@H]2[C@H](NC(=O)[C@H](N)c3ccccc3)C(=O)N2[C@H]1C(=O)O — koff (Nuclear receptor subfamily 2 group C member 2, ligand-binding domain (Homo sapiens, UniProt P49116); SPR imaging; 600 nM): 2.29e-05 s⁻¹
NC(Cc1cc(I)c(Oc2cc(I)c(O)c(I)c2)c(I)c1)C(=O)O (stereo not drawn) — uptake (Solute carrier organic anion transporter family member 1A2 (SLCO1A2, Homo sapiens, UniProt P46721); substrate; COS-1 transfected with SLCO1A2; 60 min, 37 °C; baseline: empty vector-transfected cells): increased
C[S+](CC[C@H](N)C(=O)O)C[C@H]1O[C@@H](n2cnc3c(N)ncnc32)[C@H](O)[C@@H]1O (stereo partly drawn) — ΔH of binding (O-methyltransferase (Sorghum bicolor, UniProt A0A1B6PFV1); isothermal titration calorimetry; concentration not given, apo protein): -5.94 ± 0.742 kcal/mol
CC[C@H](C)[C@H](NC(=O)[C@H](CCC(=O)O)NC(=O)[C@H](CCC(=O)O)NC(=O)[C@@H]1CCCN1C(=O)[C@H](CC(=O)O)NC(=O)[C@H](C)NC(=O)[C@H](CCC(N)=O)NC(=O)[C@@H](NC(=O)[C@H](C)NC(=O)[C@@H](NC(=O)[C@H](CO)NC(=O)[C@@H](NC(=O)[C@H](CCCCN)NC(=O)[C@@H](N)Cc1ccc(O)cc1)[C@@H](C)O)C(C)C)[C@@H](C)O)C(=O)N[C@H](C(=O)N[C@H](C(=O)N[C@@H](CC(C)C)C(=O)N[C@@H](CC(=O)O)C(=O)N[C@@H](CC(=O)O)C(=O)N[C@@H](CC(=O)O)C(=O)N[C@@H](CC(=O)O)C(=O)O)C(C)C)[C@@H](C)CC — enthalpy change (ΔH) (Small ubiquitin-related modifier 1 (Homo sapiens, UniProt P63165, C52A); isothermal titration calorimetry; concentration not given, pH 7.4, SUMO1 construct): 5.1 ± 0.54 kcal/mol
Cc1ncccc1OC[C@H]1CN(CCN2CCc3ccccc32)CCO1 — inhibition (5-hydroxytryptamine receptor 4 (HTR4, Homo sapiens, UniProt Q13639); radioligand binding; concentration not given): 20.3%
CCN1CCC[C@H]1CNC(=O)c1c(O)c(Cl)cc(Cl)c1OC — log2 fold change (G-protein coupled receptor 87 (GPR87, Homo sapiens, UniProt Q9BY21); β-arrestin recruitment, TANGO luminescence, refers to: GPR87; concentration not given; baseline: basal luminescence): -0.074
CN(CCCCNC(=O)c1cc2ccccc2[nH]1)[C@@H]1Cc2cccc3[nH]c(=O)n(c23)C1 — Hill coefficient (5-hydroxytryptamine receptor 1A (HTR1A, Homo sapiens, UniProt P08908); binding; added: [3H]8-OH-DPAT): -0.63 ± 0.07
CC(C)C[C@@H]1NC(=O)[C@H](C(C)C)NC(=O)CNC(=O)[C@H](CC(N)=O)NC(=O)[C@@H]2CCCN2C(=O)[C@H](Cc2ccc(O)cc2)NC(=O)[C@H](CCCNC(=N)N)NC(=O)[C@H](Cc2ccccc2)NC(=O)[C@@H](NC(=O)[C@H](CCCCN)NC(=O)[C@@H]2CCCN2C(=O)[C@H](C)NC(=O)[C@H](C)NC(=O)[C@@H](N)Cc2ccc(O)cc2)CSSC[C@@H](C(=O)N[C@H](C(N)=O)[C@@H](C)O)NC(=O)[C@H](C)NC1=O — -ΔG (Alpha-2-HS-glycoprotein, asialo (AHSG, Bos taurus, UniProt P12763); binding, isothermal titration calorimetry; pH 7.0, 25 °C, added: asialofetuin): 5.75 kcal/mol
NCCCC(=O)O — normalised MST signal (Sodium- and chloride-dependent taurine transporter (SLC6A6, Homo sapiens, UniProt P31641, G62A); binding, microscale thermophoresis; 3.91 µM, room temperature, added: 50 nM labelled protein; higher = more binding): -0.0041
CC(C)C[C@@H]1NC(=O)CNC(=O)[C@H](CC(C)C)NC(=O)[C@@H]2CCCN2C(=O)[C@H](CC(=O)O)NC(=O)[C@H](Cc2ccc(O)cc2)NC(=O)CNC(=O)[C@@H](Cc2ccc(O)cc2)NC(=O)CSC[C@@H](C(N)=O)NC(=O)[C@H](C)NC(=O)[C@H](Cc2ccccc2)NC(=O)[C@H](Cc2ccc(O)cc2)NC(=O)[C@H](CCCCN)NC1=O — -TΔS (VPS35/VPS29 (Homo sapiens, UniProt Q96QK1+Q9UBQ0); binding, ITC; 25 °C, heterodimer): 2.4 ± 1.1 kcal/mol
O=S(=O)(O)O — reaction velocity (GUK1 (Homo sapiens, UniProt Q16774); enzyme activity, NADH-coupled; 1 mM, added: ATP 500 µM): 0.106 µM/s and 0.109 µM/s and 0.114 µM/s
CNC1=NS(=O)(=O)c2ccccc21 — activity (Pyruvate kinase PKLR (PKLR, Homo sapiens, UniProt P30613); enzyme activity, activator; 10 µM): inactive
Cc1cccc(N2CC(C(=O)O)CC2=O)c1 (stereo not drawn) — log fold enrichment (DDB1- and CUL4-associated factor 1 (DCAF1, Homo sapiens, UniProt Q9Y4B6); binding, affinity selection mass spectrometry; baseline: other proteins in batch): -0.0479
O=C(COP(=O)(O)O)[C@@H](O)[C@H](O)[C@H](O)COP(=O)(O)O — thermal stability ratio (DNA-directed RNA polymerase II subunit RPB1 (Homo sapiens, UniProt P24928); thermal proteome profiling, refers to: POLR2A; HepG2 cell lysate; concentration not given, 57 over 37 °C; baseline: compound over control): 0.5 and 0.438 and 0.7

Excerpt of the above:
CC[C@H](C)[C@H](NC(=O)[C@H](CCC(=O)O)NC(=O)[C@H](CCC(=O)O)NC(=O)[C@@H]1CCCN1C(=O)[C@H](CC(=O)O)NC(=O)[C@H](C)NC(=O)[C@H](CCC(N)=O)NC(=O)[C@@H](NC(=O)[C@H](C)NC(=O)[C@@H](NC(=O)[C@H](CO)NC(=O)[C@@H](NC(=O)[C@H](CCCCN)NC(=O)[C@@H](N)Cc1ccc(O)cc1)[C@@H](C)O)C(C)C)[C@@H](C)O)C(=O)N[C@H](C(=O)N[C@H](C(=O)N[C@@H](CC(C)C)C(=O)N[C@@H](CC(=O)O)C(=O)N[C@@H](CC(=O)O)C(=O)N[C@@H](CC(=O)O)C(=O)N[C@@H](CC(=O)O)C(=O)O)C(C)C)[C@@H](C)CC — enthalpy change (ΔH) (Small ubiquitin-related modifier 1 (Homo sapiens, UniProt P63165, C52A); isothermal titration calorimetry; concentration not given, pH 7.4, SUMO1 construct): 5.1 ± 0.54 kcal/mol
Cc1ncccc1OC[C@H]1CN(CCN2CCc3ccccc32)CCO1 — inhibition (5-hydroxytryptamine receptor 4 (HTR4, Homo sapiens, UniProt Q13639); radioligand binding; concentration not given): 20.3%
